Measured values pooled from the literature.
Parts stem from different laboratories: compare values within a part only. Several values in a cell are separate wells, animals, samples, runs or records.

Block 1
SMILES: Cc1ncsc1-c1ccc(C(CO)NC(=O)C2CC(O)CN2C(=O)C(C(C)C)n2cc(-c3ccc(COc4c(-c5c(C)c(F)cc6[nH]ncc56)c(C5CC5)cc5c(N6CC7CC6CN7)nc(OC6CCOCC6)nc45)cc3)nn2)cc1 (stereo not shown)
It gave 25.2 g and 23.4 g and 21.9 g and 24.8 g and 24.4 g for body weight (mouse, PK-59 xenograft; 30 mg/kg, day 0).
It gave 20 g and 19.1 g and 21.5 g and 17 g and 18.5 g for body weight (mouse, HT-29 xenograft; sc, 30 mg/kg once daily, day 13).
It gave 25 g for body weight (mouse, ASPC1 xenograft; 30 mg/kg twice weekly, day 7).
mouse, PK-59 xenograft; 0.3 mg/kg, day 10 — body weight: 25.4 g and 24.9 g and 25.2 g.
The body weight was 26.3 g and 23 g and 24.3 g and 24.8 g (mouse, PK-59 xenograft; 30 mg/kg, day 17).
The body weight was 24.9 g (mouse, PK-1 xenograft; 30 mg/kg twice weekly, day 0).
It gave 26.6 g and 22.9 g for body weight (mouse, lung LXFA sample B PDX; 30 mg/kg twice weekly, day 7).
mouse, PK-59 xenograft; 3 mg/kg, day 4 — body weight: 24.7 g.

Block 2
Structure (SMILES): Cc1cc2c([nH]1)c(=O)[nH]c(=S)n2Cc1cccc(OC/C(=C/F)CN)c1
AOC3: Amine oxidase [copper-containing] 3 (AOC3, Homo sapiens, UniProt Q16853)
Chain of UniProt Q16853 (whole entry, looked up): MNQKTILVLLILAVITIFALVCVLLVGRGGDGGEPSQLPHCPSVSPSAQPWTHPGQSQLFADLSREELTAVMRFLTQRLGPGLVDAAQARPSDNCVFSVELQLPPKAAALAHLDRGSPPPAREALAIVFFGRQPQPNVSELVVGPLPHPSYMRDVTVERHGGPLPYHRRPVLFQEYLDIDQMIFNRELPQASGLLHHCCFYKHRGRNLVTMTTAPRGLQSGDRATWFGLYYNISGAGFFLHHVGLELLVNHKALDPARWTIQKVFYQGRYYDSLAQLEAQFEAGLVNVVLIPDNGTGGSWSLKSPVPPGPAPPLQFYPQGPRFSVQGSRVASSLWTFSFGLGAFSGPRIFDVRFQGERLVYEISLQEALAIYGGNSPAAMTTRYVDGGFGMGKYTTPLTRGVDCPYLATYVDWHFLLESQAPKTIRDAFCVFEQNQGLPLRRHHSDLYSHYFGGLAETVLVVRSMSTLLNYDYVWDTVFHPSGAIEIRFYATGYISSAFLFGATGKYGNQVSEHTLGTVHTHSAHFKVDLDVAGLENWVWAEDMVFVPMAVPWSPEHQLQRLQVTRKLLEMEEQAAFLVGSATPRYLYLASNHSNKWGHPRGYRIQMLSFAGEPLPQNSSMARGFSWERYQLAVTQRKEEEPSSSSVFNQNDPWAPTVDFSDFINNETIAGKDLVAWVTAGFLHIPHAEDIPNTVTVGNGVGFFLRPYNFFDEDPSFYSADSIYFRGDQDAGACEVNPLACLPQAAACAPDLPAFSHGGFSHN
MPO: Myeloperoxidase (MPO, Homo sapiens, UniProt P05164)
Chain of UniProt P05164 (whole entry, looked up): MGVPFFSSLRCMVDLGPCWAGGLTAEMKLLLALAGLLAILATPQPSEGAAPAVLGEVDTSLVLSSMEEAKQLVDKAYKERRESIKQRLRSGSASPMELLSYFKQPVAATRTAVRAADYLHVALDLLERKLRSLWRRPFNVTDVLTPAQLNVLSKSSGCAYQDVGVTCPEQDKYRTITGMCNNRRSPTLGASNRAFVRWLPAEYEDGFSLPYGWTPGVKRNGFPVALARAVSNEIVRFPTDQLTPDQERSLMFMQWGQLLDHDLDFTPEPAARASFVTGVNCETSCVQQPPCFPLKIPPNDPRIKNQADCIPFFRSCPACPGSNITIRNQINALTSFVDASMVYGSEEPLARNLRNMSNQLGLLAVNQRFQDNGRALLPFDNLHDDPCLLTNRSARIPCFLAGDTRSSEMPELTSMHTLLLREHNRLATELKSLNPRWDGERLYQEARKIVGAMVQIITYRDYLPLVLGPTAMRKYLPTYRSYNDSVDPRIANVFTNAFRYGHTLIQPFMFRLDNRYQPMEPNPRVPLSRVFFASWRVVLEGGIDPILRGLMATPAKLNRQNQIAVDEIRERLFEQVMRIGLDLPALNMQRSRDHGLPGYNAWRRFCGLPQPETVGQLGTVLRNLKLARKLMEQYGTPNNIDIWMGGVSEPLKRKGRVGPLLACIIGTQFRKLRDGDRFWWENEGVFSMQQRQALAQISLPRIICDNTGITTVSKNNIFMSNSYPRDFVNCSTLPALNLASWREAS
For AOC3; enzyme activity, inhibitor, fluorescence; 1.5 nM: inhibition read 2.14% and 0.628%.
It gave 7.42% and -1.88% and 3.98% for inhibition (MPO; Amplex Red; 0.0206 µM).
It gave 47.3% and 53.1% and 71.5% for inhibition (MPO; enzyme activity, inhibitor, fluorescence; 1.667 µM).
The inhibition was 30.3% and 24.2% (AOC3; enzyme activity, inhibitor, fluorescence; 13.7 nM).
It gave -0.5% and -6.04% and 3.42% for inhibition (MPO; enzyme activity, inhibitor, fluorescence; 300 pM).
MPO; enzyme activity, inhibitor, fluorescence; 15 µM — inhibition: 96.1% and 94% and 96%.
For AOC3; enzyme activity, inhibitor, fluorescence; 3.333 µM: inhibition read 99.9% and 99.7%.
The inhibition was 10.8% and 13.7% (AOC3; enzyme activity, inhibitor, fluorescence; 4.6 nM).

Block 3
SMILES: COc1cc(C(=O)OCCCN2CCCN(CCCOC(=O)c3cc(OC)c(OC)c(OCc4ccc([N+](=O)[O-])cc4)c3)CC2)cc(OC)c1OC
Host: mice, male and female, formalin pain
Route: intrathecal
With: formalin 5%, 20 µL intraplantar
Direction: higher = more pain
The “licking and flinching time” was 23.5 a.u. and 37.9 a.u. and 94 a.u. and 12.9 a.u. and 10.1 a.u. and 68.8 a.u. and 60.5 a.u. and 29.2 a.u. (1 nmol, 5-10 min after formalin).
It gave 103 a.u. and 7.96 a.u. and 29.2 a.u. and 121 a.u. and 62 a.u. and 4.69 a.u. and 3.9 a.u. and 6.74 a.u. for “licking and flinching time” (10 nmol, 20-25 min after formalin).
It gave 63 a.u. and 14.1 a.u. and 2.23 a.u. and 61.3 a.u. and 75.5 a.u. and 15.2 a.u. and 7.39 a.u. and 57.6 a.u. for “licking and flinching time” (10 nmol, 15-20 min after formalin).
It gave 34.7 a.u. and 71.7 a.u. and 27.6 a.u. and 28.1 a.u. and 18.7 a.u. and 11.1 a.u. and 38.1 a.u. and 10.7 a.u. for “licking and flinching time” (100 nmol, 15-20 min after formalin).
10 nmol, 25-30 min after formalin — “licking and flinching time”: 52.1 a.u. and 58 a.u. and 65 a.u. and 16.6 a.u. and 24.4 a.u. and 17.8 a.u. and 60.8 a.u. and 65.3 a.u.
The “licking and flinching time” was 6.98 a.u. and 70.7 a.u. and 21.4 a.u. and 13 a.u. and 1.37 a.u. and 4.18 a.u. and 8.81 a.u. and 65.5 a.u. (100 nmol, 25-30 min after formalin).
For 10 nmol, 5-10 min after formalin: “licking and flinching time” read 38.1 a.u. and 11.8 a.u. and 38.4 a.u. and 0.96 a.u. and 37.9 a.u. and 63.5 a.u. and 21 a.u. and 47.3 a.u.
It gave 181 a.u. and 214 a.u. and 158 a.u. and 191 a.u. and 199 a.u. and 177 a.u. and 164 a.u. for “licking and flinching time” (10 nmol, 0-5 min after formalin).

Single results of other studies
For Cn1cc(-c2cccc(CN3CCC4(CC3)COc3c4ccc4c3CN([C@H]3CCC(=O)NC3=O)C4=O)c2)cn1, “body weight change” read -3% and 5.2% and 3.3% and 4.4% and 1.7% (Crbn I391V mouse, MC-38 tumour; oral, daily, 30 mg/kg, day 15, anti-PD1 combination study).

Repeated from above (block 2):
It gave 47.3% and 53.1% and 71.5% for inhibition (MPO; enzyme activity, inhibitor, fluorescence; 1.667 µM).
It gave 7.42% and -1.88% and 3.98% for inhibition (MPO; Amplex Red; 0.0206 µM).
